Measured values pooled from the literature.
Each line is one published result; not all experiments were run side by side. ± marks the error that the study gave.
DRD4: D(4) dopamine receptor (DRD4, Homo sapiens, UniProt P21917)
Sequence of UniProt P21917 (whole entry, looked up): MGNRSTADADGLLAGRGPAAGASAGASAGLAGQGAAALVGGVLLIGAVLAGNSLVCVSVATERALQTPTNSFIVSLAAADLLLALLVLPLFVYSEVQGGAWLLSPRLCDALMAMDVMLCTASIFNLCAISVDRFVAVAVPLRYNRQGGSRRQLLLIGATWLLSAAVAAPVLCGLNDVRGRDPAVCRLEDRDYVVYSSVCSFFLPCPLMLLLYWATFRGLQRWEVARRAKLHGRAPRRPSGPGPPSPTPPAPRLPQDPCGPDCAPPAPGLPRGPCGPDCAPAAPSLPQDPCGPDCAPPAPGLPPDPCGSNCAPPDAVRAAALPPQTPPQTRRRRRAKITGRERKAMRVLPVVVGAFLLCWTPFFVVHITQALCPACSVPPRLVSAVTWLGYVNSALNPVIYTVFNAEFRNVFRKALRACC
CNR1: Cannabinoid receptor 1 (CNR1, Homo sapiens, UniProt P21554)
Sequence of UniProt P21554 (whole entry, looked up): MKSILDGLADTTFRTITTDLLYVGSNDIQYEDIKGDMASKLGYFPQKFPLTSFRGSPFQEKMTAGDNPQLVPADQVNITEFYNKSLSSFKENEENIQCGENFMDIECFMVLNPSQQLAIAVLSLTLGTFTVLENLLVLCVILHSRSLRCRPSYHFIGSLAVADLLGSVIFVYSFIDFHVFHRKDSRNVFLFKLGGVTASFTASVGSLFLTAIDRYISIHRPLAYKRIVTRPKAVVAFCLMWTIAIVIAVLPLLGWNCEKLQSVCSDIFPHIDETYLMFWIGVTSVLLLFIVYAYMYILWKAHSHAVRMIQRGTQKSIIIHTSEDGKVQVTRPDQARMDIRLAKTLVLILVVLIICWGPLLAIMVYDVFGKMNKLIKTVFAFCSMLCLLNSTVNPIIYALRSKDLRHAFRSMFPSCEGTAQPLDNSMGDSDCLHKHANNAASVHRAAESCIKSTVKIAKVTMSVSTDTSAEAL
GSPT1: Eukaryotic peptide chain release factor GTP-binding subunit ERF3A (GSPT1, Homo sapiens, UniProt P15170)
Sequence of UniProt P15170 (whole entry, looked up): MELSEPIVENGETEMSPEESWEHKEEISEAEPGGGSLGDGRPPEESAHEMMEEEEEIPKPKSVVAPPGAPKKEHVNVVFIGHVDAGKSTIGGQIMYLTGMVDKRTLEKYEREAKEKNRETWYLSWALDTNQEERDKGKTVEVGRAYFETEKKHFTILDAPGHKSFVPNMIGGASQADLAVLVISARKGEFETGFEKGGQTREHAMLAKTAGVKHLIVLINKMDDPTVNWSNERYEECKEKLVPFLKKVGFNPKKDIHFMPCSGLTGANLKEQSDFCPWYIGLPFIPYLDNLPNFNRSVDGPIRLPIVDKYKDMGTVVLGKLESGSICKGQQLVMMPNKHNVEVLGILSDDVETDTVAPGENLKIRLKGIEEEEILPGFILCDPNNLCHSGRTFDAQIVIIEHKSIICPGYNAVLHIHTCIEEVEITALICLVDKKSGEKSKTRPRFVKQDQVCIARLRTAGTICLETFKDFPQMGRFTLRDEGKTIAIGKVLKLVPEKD
Sequence of UniProt P06239 (whole entry, looked up): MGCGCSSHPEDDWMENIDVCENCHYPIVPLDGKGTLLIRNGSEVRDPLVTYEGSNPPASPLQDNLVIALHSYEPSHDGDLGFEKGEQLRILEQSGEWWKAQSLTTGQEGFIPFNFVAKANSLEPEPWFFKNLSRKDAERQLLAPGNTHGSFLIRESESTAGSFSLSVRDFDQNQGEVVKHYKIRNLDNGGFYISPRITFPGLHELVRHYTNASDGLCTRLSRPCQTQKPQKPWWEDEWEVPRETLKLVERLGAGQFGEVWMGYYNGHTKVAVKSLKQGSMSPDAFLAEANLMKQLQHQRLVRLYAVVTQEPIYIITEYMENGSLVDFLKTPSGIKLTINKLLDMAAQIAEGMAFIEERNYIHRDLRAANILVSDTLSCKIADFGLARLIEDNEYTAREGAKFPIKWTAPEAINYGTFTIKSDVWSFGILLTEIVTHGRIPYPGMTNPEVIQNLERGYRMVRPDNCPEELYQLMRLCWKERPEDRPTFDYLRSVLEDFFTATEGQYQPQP
Sequence of UniProt P46089 (whole entry, unmodified, looked up): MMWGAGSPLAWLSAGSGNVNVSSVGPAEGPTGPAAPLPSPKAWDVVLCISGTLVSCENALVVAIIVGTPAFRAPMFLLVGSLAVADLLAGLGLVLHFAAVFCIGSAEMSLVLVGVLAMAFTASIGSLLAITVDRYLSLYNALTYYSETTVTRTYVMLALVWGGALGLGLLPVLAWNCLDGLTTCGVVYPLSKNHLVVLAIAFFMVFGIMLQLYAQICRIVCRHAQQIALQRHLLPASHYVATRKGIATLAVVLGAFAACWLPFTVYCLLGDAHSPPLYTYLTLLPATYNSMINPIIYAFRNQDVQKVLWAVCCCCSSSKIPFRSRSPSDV
Sequence of UniProt Q9BQB4 (whole entry, looked up): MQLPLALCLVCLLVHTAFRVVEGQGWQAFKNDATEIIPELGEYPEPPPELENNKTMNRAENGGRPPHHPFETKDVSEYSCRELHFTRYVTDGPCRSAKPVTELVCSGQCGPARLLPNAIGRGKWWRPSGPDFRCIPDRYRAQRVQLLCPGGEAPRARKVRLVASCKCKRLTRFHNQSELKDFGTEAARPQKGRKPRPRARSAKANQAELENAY
Sequence of UniProt Q9NYA1 (whole entry, looked up): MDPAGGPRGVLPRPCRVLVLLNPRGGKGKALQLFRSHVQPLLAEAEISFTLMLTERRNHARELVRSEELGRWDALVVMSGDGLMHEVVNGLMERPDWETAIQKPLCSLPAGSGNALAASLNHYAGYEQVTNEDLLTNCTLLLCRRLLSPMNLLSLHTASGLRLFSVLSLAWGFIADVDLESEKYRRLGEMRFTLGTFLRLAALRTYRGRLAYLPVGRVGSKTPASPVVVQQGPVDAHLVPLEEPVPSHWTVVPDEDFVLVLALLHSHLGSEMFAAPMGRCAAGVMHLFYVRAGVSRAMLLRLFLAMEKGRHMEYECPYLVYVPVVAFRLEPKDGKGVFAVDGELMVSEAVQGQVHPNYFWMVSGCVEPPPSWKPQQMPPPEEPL
Sequence of UniProt P35821 (whole entry, looked up): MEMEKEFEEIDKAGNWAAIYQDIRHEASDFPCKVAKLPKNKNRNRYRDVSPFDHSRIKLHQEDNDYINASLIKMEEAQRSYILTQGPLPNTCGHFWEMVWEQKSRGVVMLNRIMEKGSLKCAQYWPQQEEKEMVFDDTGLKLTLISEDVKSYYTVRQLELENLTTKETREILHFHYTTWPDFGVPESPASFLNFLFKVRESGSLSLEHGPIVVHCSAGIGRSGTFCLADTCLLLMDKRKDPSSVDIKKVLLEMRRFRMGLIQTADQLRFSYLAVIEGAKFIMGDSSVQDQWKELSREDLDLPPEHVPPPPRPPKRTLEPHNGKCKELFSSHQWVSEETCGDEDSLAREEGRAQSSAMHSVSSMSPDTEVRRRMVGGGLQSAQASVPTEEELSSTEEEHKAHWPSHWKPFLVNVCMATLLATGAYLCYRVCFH
Sequence of UniProt Q96SW2 (whole entry, looked up): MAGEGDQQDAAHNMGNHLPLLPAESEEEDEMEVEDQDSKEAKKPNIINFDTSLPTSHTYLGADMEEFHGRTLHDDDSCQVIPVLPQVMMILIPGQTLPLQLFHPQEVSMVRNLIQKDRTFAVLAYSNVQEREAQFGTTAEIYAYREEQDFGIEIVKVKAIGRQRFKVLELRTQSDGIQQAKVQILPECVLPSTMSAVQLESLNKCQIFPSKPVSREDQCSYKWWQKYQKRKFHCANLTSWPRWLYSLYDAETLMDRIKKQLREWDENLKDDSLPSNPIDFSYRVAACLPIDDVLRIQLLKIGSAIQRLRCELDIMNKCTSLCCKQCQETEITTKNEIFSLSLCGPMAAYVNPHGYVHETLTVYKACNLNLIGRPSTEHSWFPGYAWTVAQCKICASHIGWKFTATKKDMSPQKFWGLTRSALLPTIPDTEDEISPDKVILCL
Sequence of UniProt Q86YV6 (whole entry, looked up): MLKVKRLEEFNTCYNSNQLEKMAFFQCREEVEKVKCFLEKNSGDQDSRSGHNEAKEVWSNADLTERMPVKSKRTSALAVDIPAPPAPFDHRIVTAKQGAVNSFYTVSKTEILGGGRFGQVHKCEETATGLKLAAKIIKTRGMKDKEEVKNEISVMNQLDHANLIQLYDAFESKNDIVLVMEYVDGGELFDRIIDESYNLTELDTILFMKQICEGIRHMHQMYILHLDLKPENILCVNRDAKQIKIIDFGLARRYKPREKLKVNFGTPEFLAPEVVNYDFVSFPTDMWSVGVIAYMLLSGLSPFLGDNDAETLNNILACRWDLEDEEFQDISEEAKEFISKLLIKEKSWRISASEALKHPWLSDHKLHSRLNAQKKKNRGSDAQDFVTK
Sequence of UniProt P07948 (whole entry, looked up): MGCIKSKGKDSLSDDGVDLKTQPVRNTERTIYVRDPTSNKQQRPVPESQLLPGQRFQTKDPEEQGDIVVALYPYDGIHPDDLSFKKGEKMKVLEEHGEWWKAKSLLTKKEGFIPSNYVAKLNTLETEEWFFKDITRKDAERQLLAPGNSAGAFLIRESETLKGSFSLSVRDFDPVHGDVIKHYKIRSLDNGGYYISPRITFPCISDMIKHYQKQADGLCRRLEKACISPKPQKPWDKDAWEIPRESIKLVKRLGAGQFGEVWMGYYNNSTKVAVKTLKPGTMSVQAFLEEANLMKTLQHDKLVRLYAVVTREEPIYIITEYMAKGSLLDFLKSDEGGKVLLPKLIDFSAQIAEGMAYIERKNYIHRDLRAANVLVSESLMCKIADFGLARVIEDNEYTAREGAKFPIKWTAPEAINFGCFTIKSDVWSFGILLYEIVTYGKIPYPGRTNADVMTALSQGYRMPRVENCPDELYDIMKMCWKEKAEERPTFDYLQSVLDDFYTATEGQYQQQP
Sequence of UniProt P06493 (whole entry, looked up): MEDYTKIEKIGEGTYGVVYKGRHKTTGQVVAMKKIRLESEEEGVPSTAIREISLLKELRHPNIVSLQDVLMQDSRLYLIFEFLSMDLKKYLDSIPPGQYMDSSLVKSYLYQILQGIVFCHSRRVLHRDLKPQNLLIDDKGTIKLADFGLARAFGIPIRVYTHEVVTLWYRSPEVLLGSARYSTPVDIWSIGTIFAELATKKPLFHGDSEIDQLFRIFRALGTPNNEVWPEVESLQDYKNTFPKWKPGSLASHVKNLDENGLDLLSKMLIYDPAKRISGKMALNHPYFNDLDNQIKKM

Structure (SMILES) | target | assay | system | setting | endpoint | value
Cc1nn(-c2cccc(N)c2)c(=O)c2cnc(Nc3ccc(N4CCNCC4)cc3)nc12 | SPHK1 (Homo sapiens, UniProt Q9NYA1) | enzyme activity, inhibitor |  |  | IC50 | > 10000 nM
CC1(C)C[C@@H](Nc2cccc(-c3sc(C(=O)O)c(OCC(=O)O)c3Cl)c2)CCN1S(=O)(=O)Cc1cccc(NC(=O)CN2CCC(c3ccc4c(c3)oc(=O)n4C3CCC(=O)NC3=O)CC2)c1 (stereo partly shown) | Tyrosine-protein phosphatase non-receptor type 1 (Mus musculus, UniProt P35821) | degrader, Western blot | B16-F10 | 24 h | DC50 | 83 nM
CC(C)Oc1cc(Cl)ccc1CNc1cc(-c2ccccc2)nc2ncnn12 | GPR3 (Homo sapiens, UniProt P46089, M156A) | cAMP level, agonist, cAMP GloSensor |  | M156A mutant | EC50 | 1280 nM
Fc1ccc(OCC2CN(Cc3cn4ccccc4n3)CCC2(F)F)cc1 (stereo not shown) | DRD4 | ligand displacement, radioligand |  |  | Ki | 73 nM
CCOC(=O)C(CC)(CCCSCCOCCOCCN)NC(=O)c1ccc(C2CC2)c(Cc2ccc(F)cc2)n1 (racemic) | CNR1 | ligand displacement, radioligand |  | cell membranes | Ki | 433 nM
CCc1nc2cc3ccccc3cc2cc1C(=O)N[C@@H](CCCCN)C(=O)N[C@@H](C/C=C\C[C@H](NC(=O)[C@H](CCCCN)NC(=O)c1cc2cc3ccccc3cc2nc1CC)C(=O)N1CCC[C@H]1C(=O)NCCCN)C(=O)N1CCC[C@H]1C(=O)NCCCN | (CUG)10 RNA | SPR |  |  | Kd | 91.8 nM
COc1ccc(CN2CCC(F)(F)C(COc3nc4ccccc4s3)C2)cc1F (stereo not shown) | DRD4 | ligand displacement, radioligand |  | cell membranes | Ki | 1660 nM
CNC[C@H](O)c1cccc(OCCOCCOCC#Cc2cccc(Cn3c(-c4ccccc4)c(-c4ccccc4)c4c(=N)n([C@H]5CC[C@H](O)CC5)cnc43)c2)c1 | ADRA1A (Homo sapiens, UniProt P35348) | degrader, immunoblotting | PC-3 | 24 h | DC50 | 53.5 nM
Cn1ncc2cc(CN3CCC(F)(F)C(COc4ccc(C#N)cc4)C3)ccc21 (stereo not shown) | DRD4 | ligand displacement, radioligand |  |  | Ki | 8.9 nM
CCc1c(C(=O)Nc2ccc3c(c2)CN(C2CCC(=O)NC2=O)C3=O)[nH]c2c(CO)cccc12 (stereo not shown) | GSPT1 | protein level, degrader, luciferase |  |  | DC50 | > 10000 nM
CCN(CC)CC(=O)Nc1cccc(-n2cc(-c3ccc4ccc(-c5cn(-c6cccc(NC(=O)CN(CC)CC)c6)nn5)cc4c3)nn2)c1 | LYN (Homo sapiens, UniProt P07948) | enzyme activity, inhibitor |  |  | IC50 | > 10000 nM
Fc1cccc(OCC2CN(Cc3cn4ccccc4n3)CCC2(F)F)c1 (stereo not shown) | DRD4 | ligand displacement, radioligand |  | cell membranes | Ki | 85 nM
CCc1c(C(=O)Nc2ccc3c(c2)CN(C2CCC(=O)NC2=O)C3=O)[nH]c2c(NC(C)=O)cccc12 (stereo not shown) | LCK/CRBN (Homo sapiens, UniProt P06239+Q96SW2) | degrader, HiBiT, refers to: LCK-HiBiT | KOPTK1 | 24 h | DC50 | 4.7 ± 1.6 nM
Cn1ncc2cc(CN3CCC(F)(F)C(COc4cccc(F)c4)C3)ccc21 (stereo not shown) | DRD4 | ligand displacement, radioligand |  |  | Ki | 3 nM
Cc1c[nH]c2nccc(-c3ccc(C(=O)N[C@@H]4c5c(F)cc(C(F)F)cc5C[C@@H]4O)cn3)c12 | MYLK4 (Homo sapiens, UniProt Q86YV6) | binding, competition with immobilised ligand |  |  | Kd | 320 nM
CCc1c(C(=O)Nc2ccc3c(c2)CN(C2CCC(=O)NC2=O)C3=O)[nH]c2c(CNC(C)=O)cccc12 (stereo not shown) | GSPT1 | protein level, degrader, luciferase |  |  | DC50 | > 10000 nM
Fc1ccc(OCC2CN(Cc3ncc4ccccn34)CCC2(F)F)cc1F (stereo not shown) | DRD4 | ligand displacement, radioligand |  | cell membranes | Ki | 135 nM
CCc1nc2cc3ccccc3cc2cc1C(=O)N1CCC[C@H]1C(=O)N[C@@H](C/C=C/C[C@H](NC(=O)[C@@H]1CCCN1C(=O)c1cc2cc3ccccc3cc2nc1CC)C(=O)N[C@@H](CCCCN)C(=O)NCCCN)C(=O)N[C@@H](CCCCN)C(=O)NCCCN | (CUG)10 RNA | SPR |  |  | Kd | 48 nM
Cn1cnc2cc(CN3CCC(F)(F)C(COc4ccc(F)c(F)c4)C3)ccc21 (stereo not shown) | DRD4 | ligand displacement, radioligand |  | cell membranes | Ki | 4.8 nM
Cn1ncc2cc(-c3cncc(Cl)c3N3CCC4(CCNC4=O)CC3)ccc21 | CDK1 (Homo sapiens, UniProt P06493) | cell-free assay |  | lysate | Kd | 19500 nM
CCc1nc2cc3ccccc3cc2cc1C(=O)N1CCC[C@H]1C(=O)N[C@@H](CCC/C=C/CCC[C@H](NC(=O)[C@@H]1CCCN1C(=O)c1cc2cc3ccccc3cc2nc1CC)C(=O)N[C@@H](CCCCN)C(=O)NCCCN)C(=O)N[C@@H](CCCCN)C(=O)NCCCN | (CUG)10 RNA | SPR |  |  | Kd | 16 nM
Fc1cccc(OCC2CN(Cc3ncn4ccccc34)CCC2(F)F)n1 (stereo not shown) | DRD4 | ligand displacement, radioligand |  | cell membranes | Ki | 705 nM
O=C(O)CC12CC3CC(CC(C3)C1)C2 | DNA topoisomerase 2-binding protein 1, BRCT7-8 domains (TOPBP1, Homo sapiens, UniProt Q92547) | BRCT7-8 peptide binding, fluorescence polarization |  | protein 500 nM, with: FITC-BACH1 peptide 20 nM | Kd | 600000 ± 50000 nM
CCOC(=O)C(CC)(CCCSCCOCCOCCOCCNc1ccc([N+](=O)[O-])c2nonc12)NC(=O)c1ccc(C2CC2)c(Cc2ccc(F)cc2)n1 (stereo not shown) | CNR1 | ligand displacement, radioligand |  | cell membranes | Ki | 460 nM
CC(=O)N[C@@H]1[C@@H](O[C@@H]2O[C@H](C(=O)O)[C@@H](O[C@@H]3O[C@H](CO)[C@@H](OS(=O)(=O)O)[C@H](O[C@@H]4O[C@H](C(=O)O)[C@@H](OS(=O)(=O)O)[C@H](OS(=O)(=O)O)[C@H]4OS(=O)(=O)O)[C@H]3NC(C)=O)[C@H](OS(=O)(=O)O)[C@H]2OS(=O)(=O)O)[C@H](OS(=O)(=O)O)[C@@H](CO)O[C@H]1N=[N+]=[N-] | Sclerostin (SOST, Homo sapiens, UniProt Q9BQB4) | fluorescence polarization competition |  | corrected value, with: TAMRA-labelled probe | EC50 | 28300 ± 2000 nM

For quick reference, copied from above:
Structure (SMILES) | target | assay | system | setting | endpoint | value
Cn1ncc2cc(CN3CCC(F)(F)C(COc4cccc(F)c4)C3)ccc21 (stereo not shown) | DRD4 | ligand displacement, radioligand |  |  | Ki | 3 nM
Cc1c[nH]c2nccc(-c3ccc(C(=O)N[C@@H]4c5c(F)cc(C(F)F)cc5C[C@@H]4O)cn3)c12 | MYLK4 (Homo sapiens, UniProt Q86YV6) | binding, competition with immobilised ligand |  |  | Kd | 320 nM
CCc1c(C(=O)Nc2ccc3c(c2)CN(C2CCC(=O)NC2=O)C3=O)[nH]c2c(CNC(C)=O)cccc12 (stereo not shown) | GSPT1 | protein level, degrader, luciferase |  |  | DC50 | > 10000 nM
Fc1ccc(OCC2CN(Cc3ncc4ccccn34)CCC2(F)F)cc1F (stereo not shown) | DRD4 | ligand displacement, radioligand |  | cell membranes | Ki | 135 nM
